Published values collected from several papers.
Parts stem from different laboratories: compare values within a part only. Substitutions count along the parent as printed.

Sample 1 — method: RNA Bind-n-Seq; molecule type: RNA; sample: in vitro; tested at: 200 nM; setting: whole 134-nt RNA, ends assumed; together with: 150 mM LiCl; baseline: input library; reading: higher = stronger binding; quantity: log2 enrichment; library: 7-deaza-guanosine replaces G
Target: Ras GTPase-activating protein-binding protein 1, full length (G3BP1, Homo sapiens, UniProt Q13283)
Chain of UniProt Q13283 (whole entry, looked up): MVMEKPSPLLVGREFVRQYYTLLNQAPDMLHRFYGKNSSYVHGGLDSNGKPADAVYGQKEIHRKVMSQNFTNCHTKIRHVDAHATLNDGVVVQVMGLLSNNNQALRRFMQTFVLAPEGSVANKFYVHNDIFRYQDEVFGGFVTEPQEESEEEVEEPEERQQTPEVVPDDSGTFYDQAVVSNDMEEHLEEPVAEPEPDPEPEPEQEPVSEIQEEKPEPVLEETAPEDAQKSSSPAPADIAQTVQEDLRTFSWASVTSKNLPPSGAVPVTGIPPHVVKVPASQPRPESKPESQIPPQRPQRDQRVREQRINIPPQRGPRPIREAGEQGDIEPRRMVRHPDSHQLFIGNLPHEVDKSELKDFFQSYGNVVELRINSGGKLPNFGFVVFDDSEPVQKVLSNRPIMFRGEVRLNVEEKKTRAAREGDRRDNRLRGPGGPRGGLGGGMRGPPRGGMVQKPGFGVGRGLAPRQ
All sequences stand within: GGGAGUUCUACAGUCCGACGAUC … UGGAAUUCUCGGGUGUCAAGG
CAAGUCCUGUGCUACACAUCGUAUGUACCGAAUCGGGCCCGGGCCCGGCCCGGGGAAAGUAUUAUGUUACGCCGUUCGGAUCUGCACUUC: -1.16
ACCAUGCAGGUGGGCAUCUUUGGGAAGUGGGGCAAGGGGGGGAUUGGGAGGGGGGUAACACUUUGGGAACAGGUGGUCCCAGGUCGUUUC: 0.136
AAGUCCUGUGCUACACAUCGUAUGUACCGAAUCGGGGCCCCGGGCCCCGGCCCCGGGAAAGUAUUAUGUUACGCCGUUCGGAUCUGCACU: -1.92
UGGGAGGUGGAUUUUGUUUAUUUUUUUAGCUCAUUUCCAGGGGUGGGAAUUUUUUUUUACUAUGUGUCAUGAAUAAAGUUGUUUUUGAAA: -0.408
GUCCUGUGCUACACAUCGUAUGUACCGAAUCGGGGUUUUUGGGGUGGGGAAAAAGGGGAAAGUAUUAUGUUACGCCGUUCGGAUCUGCAC: 0.0827
UGGGAGGUGGAUUUUGUUUAUUUUUUUAGCUCAUUUCCAGGGGUGAGAAUUUUUUUUUAAUAUGUGUCAUGAAUAAAGUUGUUUUUGAAA: 0.0912
CCUGUGCUACACAUCGUAUGUACCGAAUCGGGCCCCCCCGGCCCCCCCGGGCCCCCCCGGAAAGUAUUAUGUUACGCCGUUCGGAUCUGC: 0.31
UGGGAGGUGGAUUUUGUUUAUUUUUUUAGCUCAUUUCCAGGGGUGGGAAUUAUUUUUUAAUAUGUGUCAUGAAUAAAGUUGUUUUUGAAA: -0.375
UAACUUUAGAGGAGGAUCUGAUGGAUAUGGCAGUGGACGUGGAUUAGGGGAUGGCUAUAAUGGGUAUGGAGGAGGACCUGGAGGUGGCAA: -0.0728
CAAGUCCUGUGCUACACAUCGUAUGUACCGAAUCGGGGCCCGGCCCGGCCCGGGGAAAGUAUUAUGUUACGCCGUUCGGAUCUGCACUUC: -0.687
GUCCUGUGCUACACAUCGUAUGUACCGAAUCGGGGUUUGGGGAGGGGAAAAAAAGGGGAAAGUAUUAUGUUACGCCGUUCGGAUCUGCAC: 0.0811

Sample 2 — target: CCNF, cyclin fold, Cln2 fusion (human); method: yeast growth competition, sequencing; sample: yeast; setting: weak parent motif; baseline: not given; reading: higher = stronger binding; quantity: normalised enrichment score
Starting sequence: WEE2 docking peptide (human); KELRQKLNFSYCE
F9A: 0.646
K1A: 0.238
K6A: 0.286
N8A: 0.869
C12A: 0.307
Y11A: 1.15
L3A: 1.64

Sample 3 — method: RNA Bind-n-Seq; molecule type: RNA; sample: in vitro; tested at: 365 nM; baseline: no-protein control; reading: higher = stronger binding; quantity: RBNS enrichment (R)
Target: RNA binding protein fox-1 homolog 2, RRM domain, GST-SBP tag (RBFOX2, Homo sapiens, UniProt O43251-10, residues 100-194)
Setting: natural RNA segment, single round, ends assumed
All sequences stand within: GGGAGUUCUACAGUCCGACGAUC … UGGAAUUCUCGGGUGCCAA
Target sequence (chain): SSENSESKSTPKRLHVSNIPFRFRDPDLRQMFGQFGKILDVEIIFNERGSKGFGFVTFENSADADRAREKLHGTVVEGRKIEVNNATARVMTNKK
UCUGCUCAGCCUUGCUGGAGAUUCUGGGUGGCAGGGAUGUCCUGAUGGGACCCUCUGGAGUCCAGCCAUCCCAGGCUGUCUGCUUUCCAGGGGUUGUAUCUUCCUUCUUA: 1.28
GUGGCAGGGCAGAAACUGGGCAGCCCUGACUUGAUAGCAGCAGGGGGAGCUCCCAAGCUGCCAAGCCCCUGCCUCCAGCCUUCCUGAGUUUCUCUCUCCUGAACCCUACU: 0.967
UAACUCUGCGGAUAGCAUUUGGUAGGUAGUGAUUAACUGUGAAUAAUAAAUACACAAUGAAUUCUUCCUUGGUAUCUUUUUUUCCCCUUGCCUGCCUUAAAAAUUUAAAA: 0.662
AAGAGUAUUUAAAGAAAUAAUUUGGAUUGCUUUUGUUUUUUGUUUCCUUUUUUUUAACCAUCUGAUACUAAGAAGAUGAAUUUGCACAGAUUUCUCUGCAUAAUUUCUCA: 1.01
CCCGUGUCUGUCUGGCUCAUCCUUUCUCCUGCCCAGCCUCACACCUGAUCUCCCUUUCCUGUAGACUGCAGGUUGCUCCUGUCCCUUGAGAUCUCAGUUAGGAGACACUG: 0.404
GGAGCAGGGACAGACAUCUGUUGGUAUUGCCCAGCUCCUGUAUCUGUGAUACAUUCCCUGGCUGAGGACUCGGGGCUGGCCUGGGCAUUUGCCUGGACUGCUGGAAACAC: 0.253
GUAUGUUUGUAUAUGUAGGACAAUAAGUUCCUUCUGACACAAGGGAGACACGAGAAGGAUAGCCUGACAUCAGAUGACAGACUGGAGGACUGUAGCACAUCUCUGGGCGU: 0.823
GGGUCGCACAGUAGGCAAGAGUCAGGGACACCCUCCAUUCCCACUGUUAGGAUUCCCACACGAACACCAAGCUACUCAGCCAUAACAUAUGCAGAGGACUUGCUCAGACU: 0.291
GCCUCCCUAGCACCUCCCCCUAACCAAAUUCUCCCUGGACCCCAUUCUGAGCUCCCCAUCACCAUGGGAGGUGGGGCCUCAAUCUAAGGCCUUCCCUGUCAGAAGGGGGU: 0.526
AUUUGCUGUCGGGUUUCCAGUUUCACCGUGUGUUAGGGUGAGGGAUGAUUGUAAAAUUUGCUCCUCAAAGGAAUCAGGCCAGACUCAAUUUUGGAGGGCAAGACAGGGAG: 0.962
UUUUCCUCCCUUACAUAUAAAUAAAUAAUGGUAACCGGUUUCUAUCUUGUAGCACCAACUGCUGUAAGGGAAUGCUGCAGACAGUGCUUGGGCGAGUGUGGCGCCAACAA: 1
GAAAACCAGUGUUCAAUUUUUUAUCUUGUUGAGCUUGUAAAAUGCCAGCAAUUUAAAACUAGGACUUUUCCCCCCAUAAGCCAAGGAGGUAGAAUUACUAAUACAAGGGU: 0.449

Sample 4 — method: competition protein-binding microarray; molecule type: double-stranded DNA, one strand shown; sample: in vitro; tested at: 2 µM; together with: Pho4 competitor, 0.05 µM; reading: higher = stronger binding; quantity: fluorescence intensity; all sequences stand within: … GTCTTGATTCGCTTGACGCTGCTG
Target: Centromere-binding protein 1, full length, His-tagged (CBF1, Saccharomyces cerevisiae, UniProt P17106, residues 1-351)
Chain of UniProt P17106 (whole entry, looked up): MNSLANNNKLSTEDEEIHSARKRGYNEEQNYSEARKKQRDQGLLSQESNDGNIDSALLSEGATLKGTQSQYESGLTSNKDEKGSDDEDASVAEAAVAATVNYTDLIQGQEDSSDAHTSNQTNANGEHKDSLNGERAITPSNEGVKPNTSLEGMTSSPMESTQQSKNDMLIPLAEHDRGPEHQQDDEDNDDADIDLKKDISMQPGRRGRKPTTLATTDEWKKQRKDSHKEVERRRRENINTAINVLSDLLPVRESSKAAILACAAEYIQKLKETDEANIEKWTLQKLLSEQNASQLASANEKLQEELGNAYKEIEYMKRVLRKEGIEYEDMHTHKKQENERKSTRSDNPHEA
Setting: whole 60-bp probe, lowest competitor level
CATACCCAACCTTGAGCAGTGGGTGAAGATATTTGT: 59 a.u.
TCCGAAACGTCGAGTCACGGGTCCTGACAAGCAACC: 569 a.u.
CGCAGTGAACTTGGCCATGTGGGGCCATCCCAAGAT: 69 a.u.
GTAATACAGAGGCTTCATGTGACGGGAGAAAGGAGA: 229 a.u.
GCACCGTAATCCATTAATGTGTCGCAGGCTTTCACC: 78.6 a.u.
CTAACGAAGGTTTGGAAAGTGGGTGACAAGCCAAGT: 62.3 a.u.
AAAGCGGTAATTTGTCACGATACTTCACATATCTAT: 249 a.u.
GAAAATGGCCCAAGTAGCGTGACAAGTCTCTGGTAA: 163 a.u.
CTTAACAGCAACTTGAACGTGAAGATGAACTTTACT: 104 a.u.
CGGGGTTAAGTTTGTCACCTTACTTGCTTGCAGCAG: 67.5 a.u.
ACAGGCTTTTACCATCACCTGAGCAGCAGCAAGAAA: 256 a.u.
ATGTCAATGGTACAGCACGTGGTAATTACAGCGGTG: 1710 a.u.
AGTAATTGTACGATGCACGTGCAAAAAAAGTGCTCA: 4140 a.u.
TGTTTAGAGAGTCTTGCCTTCAGGTTTAATATAGTC: 68.1 a.u.
ATATCTTCTAAATCGCACGGGTTCAAGATCGCAAAA: 148 a.u.
TTTAGGTAATTTGACACCGTGCCGAAATGGCTTGGC: 75.3 a.u.
TGCGCAACAACTTGAGACGTGGGTGTATGTCTAGAA: 61.2 a.u.

Excerpt of the above (sample 1):
GUCCUGUGCUACACAUCGUAUGUACCGAAUCGGGGUUUGGGGAGGGGAAAAAAAGGGGAAAGUAUUAUGUUACGCCGUUCGGAUCUGCAC: 0.0811
CAAGUCCUGUGCUACACAUCGUAUGUACCGAAUCGGGCCCGGGCCCGGCCCGGGGAAAGUAUUAUGUUACGCCGUUCGGAUCUGCACUUC: -1.16
AAGUCCUGUGCUACACAUCGUAUGUACCGAAUCGGGGCCCCGGGCCCCGGCCCCGGGAAAGUAUUAUGUUACGCCGUUCGGAUCUGCACU: -1.92
